Measured values from different studies.
Protocols differ between the studies behind these lines.

Structure (SMILES)	cell line	test	conditions	how to read	quantity	value
O=C(c1ccc(C(=O)N2CCC(N3CCCC3)CC2)c(Nc2ccccc2)c1)N1CCC(N2CCCC2)CC1	OCI-Ly1		1 µM, 120 h		viability	134%
O=C(O)COCC(=O)O	hepatocytes, iPSC-derived, line W1	cell viability, RealTime-Glo MT	72 h, differentiation day 23		IC50	11100 µM
CCCCN1C[C@H](O)[C@@H](O)[C@@H](O)[C@H]1CO	sample H patient fibroblasts	acidic compartment staining, LysoTracker Red imaging	216 h		IC50	13.6 µM
CCC(=O)N1CCC(COCC(=O)N2CCN(c3nc(-c4cnc(N)nc4C(F)F)nc(N4CCOC[C@@H]4C)n3)CC2)CC1	HCC1954	western blot, item: phospho-PKB/Akt Ser473	2 h		IC50	0.0878 µM
Cc1c(C(=O)O)ccc2c3n(nc12)[C@@H]1[C@H](C3)N(CC2CC2)[C@@]2(C(=O)Nc3cc(Cl)ccc32)[C@H]1c1cccc(Cl)c1F	SJSA-1 (MDM2-amplified)	cell proliferation, alamarBlue	120 h		IC50	0.01 µM
COc1ccc(F)cc1C(=O)NCc1ccc(-c2nn([C@@H](C)C(F)(F)F)c(N)c2C(N)=O)cc1	Rec1	item: FRACTALKINE	24 h		IC50	> 0.1 µM
Cc1c(C)c2c(c(C)c1O)CCC(C)(COc1ccc(CC3SC(=O)NC3=O)cc1)O2 (stereo not shown)	hepatocytes, iPSC-derived, line W1	cell viability, RealTime-Glo MT	24 h, differentiation day 23		IC50	23 µM
CC[C@@H](C)[C@H](N)C(=O)N1Cc2ccccc2C1	MV4-11	cell viability, CellTiter-Glo		baseline: DMSO	IC50	1.1 µM
Cc1ccc(C(=O)Nc2ccc(S(=O)(=O)O)c3cc(S(=O)(=O)O)cc(S(=O)(=O)O)c23)cc1NC(=O)c1cccc(NC(=O)Nc2cccc(C(=O)Nc3cc(C(=O)Nc4ccc(S(=O)(=O)O)c5cc(S(=O)(=O)O)cc(S(=O)(=O)O)c45)ccc3C)c2)c1	OCI-Ly1		1 µM, 120 h		viability	166%
CCCCN1C[C@H](O)[C@@H](O)[C@H](O)[C@H]1CO	GM2 AB-variant fibroblasts	lysosomal accumulation, LysoTracker staining	8 days		IC50	28 µM

Repeated from above:
Structure (SMILES)	cell line	test	conditions	how to read	quantity	value
Cc1c(C)c2c(c(C)c1O)CCC(C)(COc1ccc(CC3SC(=O)NC3=O)cc1)O2 (stereo not shown)	hepatocytes, iPSC-derived, line W1	cell viability, RealTime-Glo MT	24 h, differentiation day 23		IC50	23 µM
